Assay results collected from several papers.
Compare with care: the assays were run in different laboratories. ± gives the spread as reported.
Chymotrypsinogen A: Chymotrypsinogen A (Bos taurus, UniProt P00766)
Genome polyprotein 3C protease: Genome polyprotein, 3C protease (rhinovirus B14, UniProt P03303)
Chain of UniProt P03303 (whole entry, looked up): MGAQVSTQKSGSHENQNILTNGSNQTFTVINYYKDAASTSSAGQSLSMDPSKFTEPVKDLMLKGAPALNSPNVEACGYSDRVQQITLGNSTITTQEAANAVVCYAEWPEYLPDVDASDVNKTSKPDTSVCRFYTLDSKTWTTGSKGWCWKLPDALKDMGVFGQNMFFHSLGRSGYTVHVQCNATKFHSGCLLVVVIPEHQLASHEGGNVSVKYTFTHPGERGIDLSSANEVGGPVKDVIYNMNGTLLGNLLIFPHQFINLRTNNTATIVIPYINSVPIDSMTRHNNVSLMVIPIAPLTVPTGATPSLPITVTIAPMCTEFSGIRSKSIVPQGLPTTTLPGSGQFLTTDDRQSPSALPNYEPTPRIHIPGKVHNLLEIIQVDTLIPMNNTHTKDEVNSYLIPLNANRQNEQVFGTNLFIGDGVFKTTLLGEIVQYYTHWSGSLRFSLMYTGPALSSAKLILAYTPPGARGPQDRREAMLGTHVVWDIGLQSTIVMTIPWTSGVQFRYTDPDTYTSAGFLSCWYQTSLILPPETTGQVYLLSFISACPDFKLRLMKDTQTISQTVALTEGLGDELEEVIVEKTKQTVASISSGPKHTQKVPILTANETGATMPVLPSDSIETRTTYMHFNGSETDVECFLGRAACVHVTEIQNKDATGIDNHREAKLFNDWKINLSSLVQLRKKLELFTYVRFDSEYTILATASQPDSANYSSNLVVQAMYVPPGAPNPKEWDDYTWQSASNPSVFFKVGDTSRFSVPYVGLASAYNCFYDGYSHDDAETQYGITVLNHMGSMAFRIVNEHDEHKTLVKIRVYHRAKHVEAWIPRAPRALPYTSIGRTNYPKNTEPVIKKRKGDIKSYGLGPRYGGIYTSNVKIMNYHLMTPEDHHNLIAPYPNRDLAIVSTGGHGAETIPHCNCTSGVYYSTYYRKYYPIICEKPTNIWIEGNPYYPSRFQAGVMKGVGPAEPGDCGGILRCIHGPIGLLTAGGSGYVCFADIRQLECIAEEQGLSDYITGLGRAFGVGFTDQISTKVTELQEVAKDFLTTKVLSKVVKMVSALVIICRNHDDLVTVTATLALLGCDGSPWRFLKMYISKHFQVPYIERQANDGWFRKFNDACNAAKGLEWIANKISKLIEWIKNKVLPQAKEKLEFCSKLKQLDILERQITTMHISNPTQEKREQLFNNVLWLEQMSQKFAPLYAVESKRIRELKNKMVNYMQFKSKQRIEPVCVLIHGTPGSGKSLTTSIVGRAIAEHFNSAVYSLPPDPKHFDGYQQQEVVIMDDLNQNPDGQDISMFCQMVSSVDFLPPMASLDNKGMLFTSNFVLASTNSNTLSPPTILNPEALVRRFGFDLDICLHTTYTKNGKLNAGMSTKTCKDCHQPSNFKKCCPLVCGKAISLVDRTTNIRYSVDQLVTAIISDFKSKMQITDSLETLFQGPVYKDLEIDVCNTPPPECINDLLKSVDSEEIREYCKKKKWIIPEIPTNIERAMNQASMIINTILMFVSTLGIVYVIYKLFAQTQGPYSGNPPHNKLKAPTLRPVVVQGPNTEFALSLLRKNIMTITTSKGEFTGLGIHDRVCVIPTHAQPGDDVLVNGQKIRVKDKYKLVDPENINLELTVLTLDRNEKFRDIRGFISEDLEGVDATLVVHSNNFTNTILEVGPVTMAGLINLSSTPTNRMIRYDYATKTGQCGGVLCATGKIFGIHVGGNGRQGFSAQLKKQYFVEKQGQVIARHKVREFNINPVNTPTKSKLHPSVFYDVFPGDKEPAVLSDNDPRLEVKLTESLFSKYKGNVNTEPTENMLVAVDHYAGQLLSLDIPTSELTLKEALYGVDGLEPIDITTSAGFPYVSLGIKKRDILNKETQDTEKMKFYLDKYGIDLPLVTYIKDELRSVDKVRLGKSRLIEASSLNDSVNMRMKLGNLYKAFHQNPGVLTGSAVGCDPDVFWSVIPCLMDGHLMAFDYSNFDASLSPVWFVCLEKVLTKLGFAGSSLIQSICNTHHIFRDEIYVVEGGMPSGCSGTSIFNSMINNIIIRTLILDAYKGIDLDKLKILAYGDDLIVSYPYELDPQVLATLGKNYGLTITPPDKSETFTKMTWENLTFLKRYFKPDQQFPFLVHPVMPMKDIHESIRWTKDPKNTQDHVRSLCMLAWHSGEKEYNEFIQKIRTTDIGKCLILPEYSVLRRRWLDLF
CTSB: Cathepsin B (CTSB, Homo sapiens, UniProt P07858)
accessory gene regulator protein C: accessory gene regulator protein C (Staphylococcus aureus, UniProt O33587)
Chain of UniProt Q9HBA0 (whole entry, looked up): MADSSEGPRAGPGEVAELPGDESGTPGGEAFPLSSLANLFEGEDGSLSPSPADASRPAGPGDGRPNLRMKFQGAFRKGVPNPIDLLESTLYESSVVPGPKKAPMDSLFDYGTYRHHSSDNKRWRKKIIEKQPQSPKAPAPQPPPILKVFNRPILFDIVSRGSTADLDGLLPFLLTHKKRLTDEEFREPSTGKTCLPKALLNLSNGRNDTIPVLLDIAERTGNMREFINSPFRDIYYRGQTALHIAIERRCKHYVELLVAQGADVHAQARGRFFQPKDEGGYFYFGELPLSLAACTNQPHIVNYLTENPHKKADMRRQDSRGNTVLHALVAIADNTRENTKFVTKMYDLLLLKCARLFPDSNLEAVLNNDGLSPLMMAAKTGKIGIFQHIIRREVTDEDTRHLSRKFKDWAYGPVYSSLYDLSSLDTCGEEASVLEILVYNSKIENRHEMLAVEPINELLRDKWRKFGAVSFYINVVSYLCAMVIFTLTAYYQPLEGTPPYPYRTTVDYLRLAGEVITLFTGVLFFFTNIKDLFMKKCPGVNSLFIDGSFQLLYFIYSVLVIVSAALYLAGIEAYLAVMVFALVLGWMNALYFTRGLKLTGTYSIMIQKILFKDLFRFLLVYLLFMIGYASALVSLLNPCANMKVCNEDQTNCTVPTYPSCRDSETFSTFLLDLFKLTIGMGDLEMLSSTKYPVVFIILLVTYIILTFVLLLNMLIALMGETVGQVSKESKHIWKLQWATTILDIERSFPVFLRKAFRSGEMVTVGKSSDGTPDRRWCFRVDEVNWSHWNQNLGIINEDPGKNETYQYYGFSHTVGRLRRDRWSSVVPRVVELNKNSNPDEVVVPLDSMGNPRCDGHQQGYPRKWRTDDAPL
Chain of UniProt Q96KQ7 (whole entry, looked up): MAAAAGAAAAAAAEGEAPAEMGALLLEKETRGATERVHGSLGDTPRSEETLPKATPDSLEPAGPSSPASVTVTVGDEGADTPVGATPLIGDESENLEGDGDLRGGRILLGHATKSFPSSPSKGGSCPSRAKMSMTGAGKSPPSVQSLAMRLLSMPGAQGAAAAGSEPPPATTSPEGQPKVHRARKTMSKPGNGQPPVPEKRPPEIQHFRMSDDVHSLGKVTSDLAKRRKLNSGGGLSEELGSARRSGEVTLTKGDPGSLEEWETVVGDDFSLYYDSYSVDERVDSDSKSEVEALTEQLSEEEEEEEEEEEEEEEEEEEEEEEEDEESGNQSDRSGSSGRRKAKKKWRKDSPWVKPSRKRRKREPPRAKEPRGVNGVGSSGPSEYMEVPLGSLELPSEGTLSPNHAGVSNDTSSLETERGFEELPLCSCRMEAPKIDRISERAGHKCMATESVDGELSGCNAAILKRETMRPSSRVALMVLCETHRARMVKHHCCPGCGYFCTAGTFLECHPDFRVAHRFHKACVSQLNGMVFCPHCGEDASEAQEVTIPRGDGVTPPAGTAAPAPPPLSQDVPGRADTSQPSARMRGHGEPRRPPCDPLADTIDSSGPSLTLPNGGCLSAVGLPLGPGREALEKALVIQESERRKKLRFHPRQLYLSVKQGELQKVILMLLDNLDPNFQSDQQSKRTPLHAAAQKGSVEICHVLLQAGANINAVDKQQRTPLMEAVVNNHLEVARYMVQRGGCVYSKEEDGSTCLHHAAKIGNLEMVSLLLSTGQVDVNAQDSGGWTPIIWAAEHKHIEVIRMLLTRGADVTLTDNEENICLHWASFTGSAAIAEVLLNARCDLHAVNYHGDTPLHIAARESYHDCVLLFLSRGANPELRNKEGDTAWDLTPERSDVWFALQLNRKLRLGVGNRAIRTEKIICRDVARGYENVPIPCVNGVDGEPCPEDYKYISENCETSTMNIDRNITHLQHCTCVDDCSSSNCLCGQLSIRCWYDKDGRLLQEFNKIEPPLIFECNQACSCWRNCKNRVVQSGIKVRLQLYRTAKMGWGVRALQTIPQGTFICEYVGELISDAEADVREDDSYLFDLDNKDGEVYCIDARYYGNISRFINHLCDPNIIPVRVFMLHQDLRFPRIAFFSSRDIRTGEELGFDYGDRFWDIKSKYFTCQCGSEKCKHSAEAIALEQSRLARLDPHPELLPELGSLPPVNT
Chain of UniProt P00690 (whole entry, looked up): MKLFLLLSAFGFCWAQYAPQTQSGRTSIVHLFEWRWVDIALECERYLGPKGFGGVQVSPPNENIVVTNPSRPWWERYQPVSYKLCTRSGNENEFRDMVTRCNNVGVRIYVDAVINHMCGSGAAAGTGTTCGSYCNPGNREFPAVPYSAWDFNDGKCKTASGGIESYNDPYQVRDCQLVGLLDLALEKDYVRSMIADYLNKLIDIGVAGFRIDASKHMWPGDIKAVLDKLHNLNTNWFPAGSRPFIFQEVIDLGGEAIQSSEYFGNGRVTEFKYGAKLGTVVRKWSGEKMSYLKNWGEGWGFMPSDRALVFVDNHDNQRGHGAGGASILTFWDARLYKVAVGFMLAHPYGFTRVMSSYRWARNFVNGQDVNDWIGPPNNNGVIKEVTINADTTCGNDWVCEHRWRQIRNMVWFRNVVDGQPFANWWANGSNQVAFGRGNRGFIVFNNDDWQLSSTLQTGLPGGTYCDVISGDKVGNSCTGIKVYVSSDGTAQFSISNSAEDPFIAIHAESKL
Chain of UniProt P10415 (whole entry, looked up): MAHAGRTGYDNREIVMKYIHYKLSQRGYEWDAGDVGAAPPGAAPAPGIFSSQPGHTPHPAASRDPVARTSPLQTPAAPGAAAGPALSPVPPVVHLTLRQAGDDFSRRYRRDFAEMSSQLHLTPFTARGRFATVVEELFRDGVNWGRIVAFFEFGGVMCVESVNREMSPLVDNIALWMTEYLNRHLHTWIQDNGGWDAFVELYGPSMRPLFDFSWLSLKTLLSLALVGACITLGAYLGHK

SMILES	target	test	test system	setting	IC50 [µM]
CC(C)C[C@H](c1ccc(Cl)cc1)[C@H]1CCCCN1	Sodium-dependent dopamine transporter (SLC6A3, Homo sapiens, UniProt Q01959)	inhibitor			0.0098 ± 0.0023
Cc1cc2c(C(=O)Cc3ccccc3)c(O)c(O)cc2c(O)c1-c1c(C)cc2c(C(=O)Cc3ccccc3)c(O)c(O)cc2c1O	Apoptosis regulator Bcl-2 (BCL2, Homo sapiens, UniProt P10415)	ligand displacement, FP			0.36
O=C(Nc1ccccc1)c1ccccc1O	Histone deacetylase 7 (HDAC7, Homo sapiens, UniProt Q8WUI4)	enzyme activity, inhibitor, fluorescence			> 10
S=C(NCc1ccccn1)NCc1ccccn1	Pancreatic alpha-amylase (AMY2, Sus scrofa, UniProt P00690)	enzyme activity, inhibitor			523
O=C(NCCN1CCC2(CC1)C(=O)NCN2Cc1cccnc1)c1c[nH]c2ccccc12	Phospholipase D2 (Homo sapiens, UniProt O14939)	enzyme activity, inhibitor			> 20
CC(C)[C@H](NC(=O)N[C@H](C(=O)N[C@H]1/C=C/CCNC(=O)/C=C/[C@H](C(C)C)NC1=O)C(C)C)C(=O)O	Proteasome subunit beta type-9 (Homo sapiens, UniProt P28065)	inhibitor		human immunoproteasome, with: Ac-PAL-AMC	0.76
CC(=O)NCP(=O)(O)O	Urease subunit alpha (Sporosarcina pasteurii, UniProt P41020)	enzyme activity, inhibitor, indophenol colorimetric		20 min, pH 7.0, 37 °C, with: 50 mM urea	463 ± 34
CN(C)c1nc2sc3c(N4CCNCC4)nnnc3c2c2c1CCCC2	Beta-glucuronidase (uidA, Escherichia coli, UniProt P05804)	enzyme activity, inhibitor			0.07
Nc1nc(N)c2nc(CNc3ccc(C4(O)CNC4=O)cc3)cnc2n1 (centres unmarked)	Dihydrofolate synthase/folylpolyglutamate synthase (Escherichia coli, UniProt P08192)	enzyme activity, inhibitor			2.6
CCCn1nnc(-c2cccc(NC(=O)[C@H](C)CS)c2)n1	Metallo-beta-lactamase VIM-2 (VIM-2, Escherichia coli, UniProt Q5U7L7)	enzyme activity, inhibitor, fluorescence		with preincubation	0.0182
CSCC[C@H](NC(=O)[C@H](Cc1ccccc1)NC(=O)[C@H](Cc1c[nH]cn1)NC(=O)CNC(=O)[C@@H](NC(=O)[C@H](C)NC(=O)[C@H](Cc1c[nH]c2ccccc12)NC(=O)[C@H](CCC(N)=O)NC(=O)[C@@H]1CCCN1C(=O)CNC(=O)CNC(=O)CNC(=O)[C@@H]1CCC(=O)N1)C(C)C)C(N)=O	Gastrin-releasing peptide receptor (GRPR, Homo sapiens, UniProt P30550)	ligand displacement in cells, radioligand			0.00068
Cc1ccc2c(n1)c(-c1cccc(S(C)(=O)=O)c1)c(C)n2C/C(F)=C/CN	Lysyl oxidase homolog 4 (LOXL4, Homo sapiens, UniProt Q96JB6)	enzyme activity, inhibitor, fluorescence		with preincubation	0.118
CC(=O)N[C@@H](CCCNC(=N)N)C(=O)N[C@@H](CO)C(=O)N[C@@H](CCC(=O)O)C(=O)N[C@@H]1C(=O)N[C@@H](CC(C)C)C(=O)N[C@H]2CCCCNC(=O)CC[C@@H](C(=O)N[C@@H](Cc3ccccc3)C(=O)O)NC(=O)[C@@H]3CCC(=O)OC[C@H](NC(=O)[C@@H]4CCCN4C(=O)[C@H](Cc4ccc(O)cc4)NC2=O)C(=O)N[C@@H](CC(=O)O[C@@H]1C)C(=O)N[C@@H](Cc1c[nH]c2ccccc12)C(=O)N3	Chymotrypsinogen A	enzyme activity, inhibitor, fluorescence			7.3
CC/C(=C\CC[C@H](C)C[C@@H](C)CC[C@H](O)[C@H](C)C(=O)CC(O)[C@H](C)[C@@H](C)OC(=O)C[C@@H](O)C1=C(C)C(=O)OC1=O)C(O)CC(=O)O (some centres unmarked)	Serine/threonine-protein phosphatase PP1-alpha catalytic subunit (PPP1CA, Oryctolagus cuniculus, UniProt P62139)	phosphatase activity, inhibitor		preincubation 20 min, with: DiFMUP	0.128
N#Cc1c(C(F)(F)F)cc(-c2ccc(Cl)cc2)nc1SCC(=O)N1CCCCC1	Trace amine-associated receptor 1 (TAAR1, Homo sapiens, UniProt Q96RJ0)				> 10
CNc1nc(SC)nc2ccccc12	Cytochrome P450 3A4 (CYP3A4, Homo sapiens, UniProt P08684)	enzyme activity, inhibitor		with: VG substrate	17
NC(=O)CCC1CCCN(C(=O)c2c[nH]n3c2nc(=O)c2ccccc23)C1 (centres unmarked)	Genome polyprotein 3C protease	3C protease activity, SAMDI-MS	human rhinovirus		> 100
CC(=O)N[C@@H](Cc1ccccc1)C(=O)N[C@@H](CC(C)C)C(=O)N[C@H](C(=O)N[C@@H](CC(=O)O)C(=O)CCl)[C@@H](C)O	Caspase-3 (CASP3, Homo sapiens, UniProt P42574)	enzyme activity, inhibitor, fluorescence			56
C/C=C1/CN2CCc3c([nH]c4ccccc34)[C@@H]2C[C@@H]1/C(=C\OC)C(=O)OC	5-hydroxytryptamine receptor 7 (HTR7, Homo sapiens, UniProt P34969)	cAMP, antagonist			6

SMILES	target	test	test system	setting	IC50 [µM]
Cc1ccc(C(C)C)cc1.[Au][S]C1=NCCS1.[Cl][Ru][Cl].c1ccc(P(CP(c2ccccc2)c2ccccc2)c2ccccc2)cc1	CTSB	inhibitor		10 min preincubation, pH 6, room temperature, with: Z-FR-AMC	190
CC1CC2OCOC2C(OC2CCC3(C=O)C4CCC5(C)C(C6=CC(=O)OC6)CCC5(O)C4CCC3(O)C2)O1 (centres unmarked)	Na+/K+-ATPase (pig cerebral cortex)	enzyme activity, inhibitor, phosphate release colorimetric		30 min, 37 °C, with: ATP-Mg 3 mM	2.3 ± 0.294
COc1cccc2[nH]c(C(=O)N[C@@H](CC(C)C)C(=O)N[C@@H](C[C@@H]3CCNC3=O)C(=O)CO)cc12	Genome polyprotein 3C protease	enzyme activity, inhibitor, SAMDI-MS	human rhinovirus	30 min preincubation, with: substrate 10 µM	2.79
N[C@H](CC[As](=O)(O)O)C(=O)O	Glutaminase kidney isoform, mitochondrial (GLS, Homo sapiens, UniProt O94925)	enzyme activity, inhibitor			250
CC[C@H](C)[C@H](N)C(=O)N[C@@H](CC(N)=O)C(=O)N[C@H]1CSC(=O)[C@H](CC(C)C)NC(=O)[C@H](CC(C)C)NC(=O)[C@H](Cc2ccccc2)NC(=O)[C@H](CC(N)=O)NC1=O	accessory gene regulator protein C				0.000319
NN[C@@H](CCCC[C@H](NN)C(=O)O)C(=O)O	4-aminobutyrate aminotransferase, mitochondrial (Rattus norvegicus, UniProt P50554)	enzyme activity, inhibitor	rat brain homogenate		~572
Cc1c(C(=O)Nc2cccc(C(F)(F)F)c2)cc(-c2ccccc2)n1CCCN1CCOCC1	Transient receptor potential cation channel subfamily V member 4 (TRPV4, Homo sapiens, UniProt Q9HBA0)	calcium signal, antagonist			0.0027
C[C@]12CC[C@@H]3c4cc(Cl)c(O)c(Cl)c4CC[C@H]3[C@@H]1CCC2=O	Aldo-keto reductase family 1 member C1 (AKR1C1, Homo sapiens, UniProt Q04828)	enzyme activity, inhibitor, absorbance		pH 9	1.6
CC(C)C[C@@H]1NC(=O)[C@H](C(C)C)NC(=O)[C@H](C)NC(=O)[C@H](Cc2ccc(O)cc2)NC(=O)[C@H](CCC(N)=O)NC(=O)[C@H](CC(C)C)NC(=O)[C@@H](Cc2ccc(O)cc2)NC(=O)CSC[C@@H](C(N)=O)NC(=O)[C@H](CCC(=O)O)NC(=O)[C@H](CCCNC(=N)N)NC(=O)[C@H](CCCNC(=N)N)NC(=O)[C@H](CCCCN)NC(=O)[C@H](Cc2c[nH]cn2)NC(=O)[C@H](CCCNC(=N)N)NC1=O	CTSB	enzyme activity, inhibitor			> 10
O=C(NCCN1CCC2(CC1)C(=O)NCN2Cc1ccccc1F)c1ccc2ccccc2c1	Phospholipase D1 (Homo sapiens, UniProt Q13393)	enzyme activity, inhibitor			4.59
N=C(N)NCCC[C@H](NC(=O)[C@@H]1CCCN1C(=O)[C@H](N)Cc1ccccc1)C(=O)CCl	CTSB	enzyme activity, inhibitor, fluorescence			0.402
CCn1c(-c2ccc(-c3ccc(F)cc3)cc2)c(-c2ccc(-c3ccc(F)cc3)cc2)n(CC)c1=[Se+][Au-][P+](CC)(CC)CC.Cl	thioredoxin reductase (Acinetobacter baumannii, UniProt A0A0G4QN87)	thioredoxin reductase activity	carbapenem-resistant	2 h	1.2
C1CCc2c(c(N3CCNCC3)nc3sc4c(N5CCNCC5)nnnc4c23)C1	Beta-glucuronidase (Streptococcus agalactiae serotype V, UniProt Q8E0N2)		Streptococcus agalactiae		0.3 ± 0.03
CC(C)[C@H](NC(=O)[C@H](CO)NC(=O)[C@@H](N)CC(=O)O)C(=O)N[C@H]1CSC(=O)[C@H](Cc2ccccc2)NC(=O)[C@H](Cc2ccc(O)cc2)NC(=O)[C@H](CO)NC(=O)[C@H](C)NC1=O	accessory gene regulator protein C				> 1
CC(C)(C)c1ccc(NC(=O)NCCC[C@H](CNCc2ccccc2)C[C@H]2O[C@@H](n3cnc4c(N)ncnc43)[C@H](O)[C@@H]2O)cc1	Histone-lysine N-methyltransferase EHMT2 (EHMT2, Homo sapiens, UniProt Q96KQ7)	enzyme activity, inhibitor, radiometric			> 50
CC[C@H](C)[C@H](NC(=O)CNCCOC)C(=O)N[C@@H](CO)C(=O)N[C@@H](CCC(N)=O)C(=O)N[C@H](C(=O)N[C@@H](CC(N)=O)C(=O)N[C@@H](CCC(=O)O)C(=O)N[C@@H](CCCCN)C(=O)N[C@H](C(=O)N[C@@H](CC(N)=O)C(=O)N[C@@H](CCC(N)=O)C(=O)N[C@@H](CO)C(=O)N[C@@H](CC(C)C)C(=O)N[C@@H](C)C(=O)N[C@@H](Cc1ccccc1)C(=O)N[C@H](C(=O)N[C@@H](CCCNC(=N)N)C(=O)N[C@@H](CCCCN)C(=O)N[C@@H](CO)C(=O)N[C@@H](CC(=O)O)C(=O)N[C@@H](CCC(=O)O)C(=O)O)[C@@H](C)CC)[C@@H](C)CC)C(C)C	hRSV fusion protein 5-helix bundle	binding, fluorescence polarization		with: Fl-C35 tracer 5 nM	> 200
Cc1c(C(=O)CC2OC(=O)C(Cl)=C2Cl)sc2ccc(Cl)cc12 (centres unmarked)	Chymotrypsinogen A	enzyme activity, inhibitor			> 800
CC[C@H](C)[C@H](NC(=O)[C@@H]1CCCN1C(=O)CNC(=O)[C@H](CC(N)=O)NC(=O)CNC(=O)[C@H](CC(=O)O)NC(=O)[C@@H]1CCC(=O)O[C@H](C)[C@H](NC(=O)[C@@H](NC(=O)[C@H](Cc2ccccc2)NC(=O)[C@@H](NC(=O)[C@H](CCCCN)NC(=O)CNC(=O)[C@H](CC(=O)O)NC(=O)CNC(=O)[C@@H](NC(=O)CNC(=O)[C@H](CC(=O)O)NC(=O)[C@@H]2CCC(=O)O[C@H](C)[C@H](NC(=O)[C@@H](NC(=O)[C@H](CC(C)C)NC(=O)[C@H](CCCCN)NC(=O)[C@H](Cc3ccccc3)NC(=O)[C@H](CC(=O)O)NC(=O)CNC(=O)[C@H](CCCCN)NC(=O)[C@H](CC(C)C)NC(=O)[C@H](CO)NC(=O)CN)C(C)C)C(=O)N[C@@H](CCSC)C(=O)N[C@@H](CCCCN)C(=O)N[C@@H](C(C)C)C(=O)N3CCC[C@H]3C(=O)N2)C(C)C)C(C)C)[C@@H](C)O)C(=O)N[C@@H](C)C(=O)N[C@@H](CC(C)C)C(=O)NCC(=O)N1)C(=O)N[C@@H](Cc1ccc(O)cc1)C(=O)N[C@@H]1C(=O)N[C@@H]2C(=O)N[C@@H](CCC(N)=O)C(=O)N[C@@H](C)C(=O)N[C@@H](C(C)C)C(=O)NCC(=O)N[C@@H](CCC(=O)O[C@@H]2C)C(=O)N[C@H](C(=O)NCC(=O)NCC(=O)N[C@@H](CC(=O)O)C(=O)N[C@@H](CC(C)C)C(=O)N2CCC[C@H]2C(=O)N2CCC[C@H]2C(=O)N[C@@H](CC(C)C)C(=O)N[C@@H](Cc2ccccc2)C(=O)O)CCC(=O)O[C@@H]1C	Neutrophil elastase (ELANE, Homo sapiens, UniProt P08246)	enzyme activity, inhibitor			0.31
O=C(O)CN(CC(=O)O)CP(=O)(O)O	IMP-28 metallo-beta-lactamase	enzyme activity, inhibitor, FC5 fluorescent substrate		60 pM enzyme, 1 µM ZnSO4	39 ± 7
